Experimental data pooled from the literature.
± gives the spread as reported.

Structure (SMILES) | host | medium | route | time | setting | relative to | tissue uptake
COc1ccc(C)cc1NC(=O)OC1CC2CCCC(C1)N2Cc1ccc(CC[18F])cc1 (stereo not drawn) | BALB/c mice, EMT6 tumour | brain |  | 5 min |  |  | 2.65 ± 0.24 %ID/g
N=C(N)NCc1ccc(C(=O)NCCCC[C@H](NC(=O)CCCCCCC(=O)NCCCC[C@H](NC(=O)N[C@@H](CCC(=O)O)C(=O)O)C(=O)O)C(=O)O)cc1[211At] | SCID mouse, PC-3 xenografts | kidneys |  | 21 h |  |  | 4.38 ± 3.46 %ID/g
CCNc1cc2[o+]c3cc(NCC)c(C)cc3c(-c3ccccc3C(=O)OCCOCC[18F])c2cc1C | rat | bone |  | 15 min |  |  | 0.3 ± 0.08 %ID/g
O=C(O)CC[C@H](NC(=O)O[C@@H](CCCCNC(=O)c1ccc([18F])cc1)C(=O)O)C(=O)O | mouse, PC-3 PIP/flu xenografts | muscle |  | 180 min |  |  | 0.03 ± 0.01 %ID/g
CN[C@](C)(C[18F])C(=O)O | SCID mouse U87 xenograft | heart |  | 15 min | post injection |  | 3.5 ± 0.4 %ID/g
N=C(N)NCc1ccc(C(=O)NCCCC[C@H](NC(=O)N[C@@H](CCC(=O)O)C(=O)O)C(=O)O)cc1[131I] | SCID mouse, PC-3 xenografts | heart |  | 21 h |  |  | 0.01 %ID/g
CN(C)c1ccc(C(=O)NCCCCN2CCN(c3ccccc3O[11CH3])CC2)cc1 | male Sprague Dawley rat | lung | iv | 5 min |  | untreated | 1.96 ± 0.341 %ID/g
N=C(N)NCc1ccc(C(=O)NCCCC[C@H](NC(=O)N[C@@H](CCC(=O)O)C(=O)O)C(=O)O)cc1[211At] | SCID mouse, PC-3 xenografts | spleen |  | 21 h |  |  | 0.93 ± 0.37 %ID/g
C=Cc1cc(O)cc2nc(-c3ccc(O)c([76Br])c3)oc12 | female C57BL/6 mouse | kidney |  | 3 h | high dose |  | 0.82 ± 0.16 %ID/g

For quick reference, copied from above:
Structure (SMILES) | host | medium | route | time | setting | relative to | tissue uptake
CCNc1cc2[o+]c3cc(NCC)c(C)cc3c(-c3ccccc3C(=O)OCCOCC[18F])c2cc1C | rat | bone |  | 15 min |  |  | 0.3 ± 0.08 %ID/g
